Assay results gathered from unrelated publications.
Compare with care: the assays were run in different laboratories. Numbers after ± are the reported error.
CDK5 with p25: Cyclin-dependent kinase 5, with p25 (CDK5, Homo sapiens, UniProt Q00535)
UniProt Q00535, sequence (whole entry, looked up): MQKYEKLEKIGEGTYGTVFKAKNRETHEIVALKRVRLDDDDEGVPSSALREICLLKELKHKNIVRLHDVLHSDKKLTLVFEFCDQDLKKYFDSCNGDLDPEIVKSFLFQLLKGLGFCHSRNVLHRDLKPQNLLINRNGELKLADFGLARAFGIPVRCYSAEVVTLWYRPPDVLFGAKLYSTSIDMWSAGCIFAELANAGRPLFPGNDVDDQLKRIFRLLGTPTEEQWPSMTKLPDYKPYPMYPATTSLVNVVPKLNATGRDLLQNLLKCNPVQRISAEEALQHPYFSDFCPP
B1: human hnRNP R; sequence looked up; chain ANQVNGNAVQLKEEEEPMDTSSVTHTEHYKTLIEAGLPQKVAERLDEIFQTGLVAYVDLDERAIDALREFNEEGALSVLQQFKESDLSHVQNKSAFLCGVMKTYRQREKQGSKVQESTKGPDEAKIKALLERTGYTLDVTTGQRKYGGPPPDSVYSGVQPGIGTEVFVGKIPRDLYEDELVPLFEKAGPIWDLRLMMDPLSGQNRGYAFITFCGKEAAQEAVKLCDSYEIRPGKHLGVCISVANNRLFVGSIPKNKTKENILEEFSKVTEGLVDVILYHQPDDKKKNRGFCFLEYEDHKSAAQARRRLMSGKVKVWGNVVTVEWADPVEEPDPEVMAKVKVLFVRNLATTVTEEILEKSFSEFGKLERVKKLKDYAFVHFEDRGAAVKAMDEMNGKEIEGEEIEIVLAKPPDKKRKERQAARQASRSTAYEDYYYHPPPRMPPPIRGRGRGGGRGGYGYPPDYYGYEDYYDDYYGYDYHDYRGGYEDPYYGYDDGYAVRGRGGGRGGRGAPPPPRGRGAPPPRGRAGYSQRGAPLGPPRGSRGGRGGPAQQQRGRGSRGSRGNRGGNVGGKRKADGYNQPDSKRRQTNNQQNWGSQPIAQQPLQQGGDYSGNYGYNNDNQEFYQDTYGQQWK
B2: TRIP13, human; sequence looked up; chain MDEAVGDLKQALPCVAESPTVHVEVHQRGSSTAKKEDINLSVRKLLNRHNIVFGDYTWTEFDEPFLTRNVQSVSIIDTELKVKDSQPIDLSACTVALHIFQLNEDGPSSENLEEETENIIAANHWVLPAAEFHGLWDSLVYDVEVKSHLLDYVMTTLLFSDKNVNSNLITWNRVVLLHGPPGTGKTSLCKALAQKLTIRLSSRYRYGQLIEINSHSLFSKWFSESGKLVTKMFQKIQDLIDDKDALVFVLIDEVESLTAARNACRAGTEPSDAIRVVNAVLTQIDQIKRHSNVVILTTSNITEKIDVAFVDRADIKQYIGPPSAAAIFKIYLSCLEELMKCQIIYPRQQLLTLRELEMIGFIENNVSKLSLLLNDISRKSEGLSGRVLRKLPFLAHALYVQAPTVTIEGFLQALSLAVDKQFEERKKLAAYI
UniProt Q64663, sequence (whole entry, unmodified, looked up): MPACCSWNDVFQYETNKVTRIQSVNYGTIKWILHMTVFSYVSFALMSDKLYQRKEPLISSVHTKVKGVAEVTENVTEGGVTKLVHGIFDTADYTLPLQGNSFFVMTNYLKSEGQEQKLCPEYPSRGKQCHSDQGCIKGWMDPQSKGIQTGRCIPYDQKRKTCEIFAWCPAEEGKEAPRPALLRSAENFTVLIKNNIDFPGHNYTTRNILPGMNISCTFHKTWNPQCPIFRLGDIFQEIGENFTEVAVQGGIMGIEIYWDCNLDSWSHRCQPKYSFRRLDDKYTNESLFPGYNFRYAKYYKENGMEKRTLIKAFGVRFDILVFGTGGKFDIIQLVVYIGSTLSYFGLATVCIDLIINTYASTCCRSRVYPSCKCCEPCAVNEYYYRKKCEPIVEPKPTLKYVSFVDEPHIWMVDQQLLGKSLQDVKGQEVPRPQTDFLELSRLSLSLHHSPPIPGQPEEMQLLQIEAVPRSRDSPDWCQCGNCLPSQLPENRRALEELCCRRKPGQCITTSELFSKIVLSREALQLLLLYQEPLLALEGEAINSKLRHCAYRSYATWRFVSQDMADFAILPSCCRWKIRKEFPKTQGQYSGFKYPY
UniProt Q5ANA3, sequence (whole entry, looked up): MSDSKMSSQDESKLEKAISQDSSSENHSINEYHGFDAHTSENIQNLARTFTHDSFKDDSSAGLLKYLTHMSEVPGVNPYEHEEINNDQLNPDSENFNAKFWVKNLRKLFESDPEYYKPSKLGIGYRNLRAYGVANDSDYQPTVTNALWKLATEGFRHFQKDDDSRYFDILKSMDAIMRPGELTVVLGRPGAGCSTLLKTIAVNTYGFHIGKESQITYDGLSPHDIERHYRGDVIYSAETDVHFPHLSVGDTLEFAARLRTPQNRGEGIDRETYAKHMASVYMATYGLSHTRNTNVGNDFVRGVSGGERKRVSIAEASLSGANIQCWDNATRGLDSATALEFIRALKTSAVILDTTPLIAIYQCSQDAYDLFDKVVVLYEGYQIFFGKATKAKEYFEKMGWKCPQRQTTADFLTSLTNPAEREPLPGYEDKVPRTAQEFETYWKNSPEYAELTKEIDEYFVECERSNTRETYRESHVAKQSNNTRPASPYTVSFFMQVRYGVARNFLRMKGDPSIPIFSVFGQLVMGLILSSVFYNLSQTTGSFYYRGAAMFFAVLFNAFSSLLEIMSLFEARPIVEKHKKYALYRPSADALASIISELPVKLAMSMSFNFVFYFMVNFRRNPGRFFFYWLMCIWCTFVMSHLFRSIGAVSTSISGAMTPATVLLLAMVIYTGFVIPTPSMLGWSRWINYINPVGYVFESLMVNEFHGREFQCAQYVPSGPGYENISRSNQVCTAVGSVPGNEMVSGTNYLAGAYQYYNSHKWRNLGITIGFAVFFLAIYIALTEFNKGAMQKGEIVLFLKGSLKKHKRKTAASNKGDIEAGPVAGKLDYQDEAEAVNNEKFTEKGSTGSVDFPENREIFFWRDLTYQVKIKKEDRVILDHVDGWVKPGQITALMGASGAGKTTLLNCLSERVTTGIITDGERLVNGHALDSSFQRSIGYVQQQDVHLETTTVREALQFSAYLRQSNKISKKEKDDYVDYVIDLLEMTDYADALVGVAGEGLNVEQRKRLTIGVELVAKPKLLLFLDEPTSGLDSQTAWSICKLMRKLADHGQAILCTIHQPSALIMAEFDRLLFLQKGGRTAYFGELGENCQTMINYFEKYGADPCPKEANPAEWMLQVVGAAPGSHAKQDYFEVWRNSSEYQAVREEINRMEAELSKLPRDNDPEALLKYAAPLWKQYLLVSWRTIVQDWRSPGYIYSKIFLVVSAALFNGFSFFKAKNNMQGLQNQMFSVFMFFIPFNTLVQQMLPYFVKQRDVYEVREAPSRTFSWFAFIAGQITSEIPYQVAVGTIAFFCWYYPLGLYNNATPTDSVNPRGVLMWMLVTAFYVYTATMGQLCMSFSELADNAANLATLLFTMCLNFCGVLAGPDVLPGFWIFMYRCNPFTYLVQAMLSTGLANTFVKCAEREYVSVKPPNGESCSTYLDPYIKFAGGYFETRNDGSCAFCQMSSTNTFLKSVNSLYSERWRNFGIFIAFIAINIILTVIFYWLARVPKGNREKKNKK

Molecule	tested on	test	test system	setting	scale	endpoint	value
KEAFWDRCLSVINGMSSKMLQINA	CDK5 with p25	phosphotransferase activity, radiometric	peptide	concentration not given, 10% DMSO, together with: histone substrate	baseline: p5-WT peptide	activity change	45%
human ME2 P78D		enzyme activity, activator, NADH absorbance	recombinant enzyme	range over 0 to 5 mM, pH 7.4	baseline: wild type	activation fold	0.9
KEAFWDRCLSVINLMYSKMLQINA	CDK5 with p25	phosphotransferase activity, radiometric	peptide	concentration not given, 10% DMSO, together with: histone substrate	baseline: p5-WT peptide	activity change	29%
human ME2 E59N		enzyme activity, NADH absorbance		with fumarate 3 mM, together with: L-malate varied		Hill coefficient	1 ± 0.01
B1 (human hnRNP R)	PP6C (human)	co-immunoprecipitation, IP-MS	CYB5R4 knockout cells	concentration not given	baseline: CYB5R4 knockout over parental	log2 fold change	-1.12
human ME2 G124S mutant		enzyme activity, NADH absorbance		without fumarate, together with: L-malate varied		Hill coefficient	1 ± 0.01
11-deoxycorticosterone	CYP11B2 (human)	substrate binding, stopped-flow global kinetic fitting	purified enzyme	3-state conformational selection model, together with: equimolar adrenodoxin		rate constant k1	0.335 ± 0.0299 s⁻¹
milbemycin oxime	CDR1 (Candida albicans, UniProt Q5ANA3)	binding, microscale thermophoresis		156 nM		fraction bound	37.9%
BzATP	P2X purinoceptor 7 (P2rx7, Rattus norvegicus, UniProt Q64663, I214A/Q143A/R125A)	ion current, agonist, two-electrode voltage clamp	Xenopus laevis oocytes	100 µM	baseline: 100 µM ATP current	normalized current	1
KEAWWDRCLSVINLMSSKMLQINA	CDK5 with p25	phosphotransferase activity, radiometric	peptide	concentration not given, 10% DMSO, together with: histone substrate	baseline: p5-WT peptide	activity change	26%
B2 (TRIP13, human)	PP6C (human)	co-immunoprecipitation, IP-MS	CYB5R4 knockout cells	concentration not given	baseline: CYB5R4 knockout over parental	log2 fold change	-2.4

Excerpt of the above:
Molecule	tested on	test	test system	setting	scale	endpoint	value
human ME2 E59N		enzyme activity, NADH absorbance		with fumarate 3 mM, together with: L-malate varied		Hill coefficient	1 ± 0.01
